Measurements collected from several papers.
Protocols differ between the studies behind these lines. Numbers after ± are the reported error.

Structure (SMILES)	organism	test	system	conditions	how to read	quantity	result
COc1ccc(CNc2nc(N3CCC[C@H]3CO)ncc2C(=O)NN)cc1Cl	Salmonella typhimurium	–	TA100	125 µg/plate, 48 h, added: rat liver S9	–	revertant count	158 ± 30
CCC(=O)N(C)c1ccc(Cl)c(Cl)c1	Escherichia coli	Ames test	WP2 uvrA	0.10 mg/plate, with rat liver S9	–	revertants	30 ± 10.6 revertants/plate
COC(=O)Cn1c2ccc([N+](=O)[O-])cc2c(=O)n1Cc1ccccc1	Leishmania amazonensis	–	mouse peritoneal macrophages	intracellular amastigotes	baseline: CC50 macrophages over IC50 amastigotes	selectivity index	< 17
CC1(C)C(C=C(Cl)Cl)C1C(=O)OCc1ccccc1 (centres unmarked)	Anopheles funestus	tile contact bioassay	FUMOZ-R, resistant, female adults	30 min exposure, 24 h mortality	–	LC50	4.47 mg/m²
NCC(=O)N[C@@H](Cc1ccc(O)cc1)C(=O)N[C@@H](Cc1ccccc1)C(=O)N[C@@H](CC(=O)O)C(=O)O	Aplysia californica	–	ganglion homogenate	50 µM, pH 7.4, 37 °C	–	half-life	8.7 min
CC1(C)C(C=C(Cl)Cl)C1C(=O)OCc1ccc(F)cc1 (centres unmarked)	Anopheles funestus	tile contact bioassay	FANG, susceptible, female adults	30 min exposure, 24 h mortality	–	LC50	1.42 mg/m²
O=c1c2cc([N+](=O)[O-])ccc2n(CCN2CCCC2)n1Cc1ccccc1	Leishmania amazonensis	–	mouse peritoneal macrophages	intracellular amastigotes	baseline: CC50 macrophages over IC50 amastigotes	selectivity index	27
CC1(C)C(C=C(Cl)Cl)C1C(=O)OCc1c(F)c(F)c(F)c(F)c1F (centres unmarked)	Anopheles funestus	tile contact bioassay	FANG, susceptible, female adults	30 min exposure, 24 h mortality	–	LC50	0.0237 mg/m²
NCCn1c2ccc([N+](=O)[O-])cc2c(=O)n1Cc1ccccc1	Leishmania amazonensis	–	mouse peritoneal macrophages	intracellular amastigotes	baseline: CC50 macrophages over IC50 amastigotes	selectivity index	16
CC(=NNC(=N)N)c1nnn(-c2ccc(C#CC3(O)CCCCC3)cc2)c1C	Enterococcus faecalis	–	Caco-2, ATCC 51299	–	baseline: Caco-2 IC50 over MIC	selectivity index	2.75
C[C@@H](O)[C@H](NC(=O)[C@@H]1CCCN1C(=O)[C@H](Cc1ccc(O)cc1)NC(=O)CNC(=O)[C@H](CCCNC(=N)N)NC(=O)CNC(=O)[C@H](CO)NC(=O)[C@H](Cc1c[nH]cn1)NC(=O)OCC1c2ccccc2-c2ccccc21)C(=O)N[C@@H](CO)C(=O)N1CCC[C@H]1C(=O)N[C@@H](Cc1c[nH]c2ccccc12)C(=O)N[C@@H](CO)C(=O)O	Escherichia coli	bacterial growth, OD600	BL21, LB medium	6 h	–	CC50	> 200 mg/L
CC(=O)Oc1ccc(Cn2nc(C)c(=O)[nH]c2=O)cc1C1OC(c2cccc(Cl)c2)=NN1C(C)=O (centres unmarked)	Leishmania donovani	–	RAW264.7	intramacrophage amastigotes	baseline: CC50 over IC50	selectivity index	2.4
NCCCn1c2ccc([N+](=O)[O-])cc2c(=O)n1Cc1ccccc1	Leishmania amazonensis	–	promastigotes, MHOM/BR/77/LTB0016	–	baseline: CC50 macrophages over IC50 promastigotes	selectivity index	90
CC[C@H](C)[C@H](NC(=O)[C@@H](CCCNC(=N)N)NC(=O)[C@H](CCCNC(=N)N)NC(=O)[C@H](Cc1ccccc1)NC(=O)[C@H](Cc1c[nH]c2ccccc12)NC(=O)[C@H](CCCNC(=N)N)NC(=O)[C@@H]1CCCN1C(=O)[C@H](CCCNC(=N)N)NC(=O)[C@@H]1CCCN1C(=O)[C@H](CC(C)C)NC(=O)[C@H](Cc1ccc(O)cc1)NC(=O)[C@@H]1CCCN1C(=O)[C@@H]1CCCN1C(=O)[C@H](CCCCN)NC(=O)[C@H](CC(=O)O)NC(=O)[C@@H](N)C(C)C)C(=O)N[C@@H](Cc1ccc(O)cc1)C(=O)N[C@@H](CC(N)=O)C(=O)N[C@H](CCCNC(=N)N)C(N)=O	Escherichia coli	LC-MS	BW25113	8 µg/mL, 30 min	–	cellular peptide amount	626 ng
COc1ccc(CNc2nc(N3CCC[C@H]3CO)ncc2C(=O)NNC(=O)c2cnc(N3CCC[C@H]3CO)nc2NCc2ccc(OC)c(Cl)c2)cc1Cl	Salmonella typhimurium	–	TA1535	1000 µg/plate, 48 h, added: rat liver S9	–	revertant count	33 ± 2
CC[C@H](C)[C@H](NC(=O)[C@H](CCCNC(=N)N)NC(=O)[C@@H](NC(=O)[C@H](C)NC(=O)[C@@H](NC(=O)[C@@H](NC(=O)[C@H](CC(C)C)NC(=O)[C@H](CCCNC(=N)N)NC(=O)[C@@H](N)C(C)C)[C@@H](C)CC)C(C)C)C(C)C)C(=O)N[C@@H](Cc1c[nH]c2ccccc12)C(=O)N[C@@H](CCCNC(=N)N)C(=O)N[C@@H](CCCNC(=N)N)C(N)=O	Galleria mellonella	–	–	concentration not given, 24 h, uninfected larvae, toxicity	–	survival	90 ± 14%
CCCCNCC(O)Cn1c2ccc(Cl)cc2c2cc(Cl)ccc21 (centres unmarked)	Schistosoma japonicum	–	–	5 µg/mL, adult worms	–	mortality	100%
CC1(C)C(C=C(Cl)Cl)C1C(=O)OCc1c(F)ccc(F)c1F (centres unmarked)	Anopheles funestus	tile contact bioassay	FUMOZ-R, resistant, female adults	30 min exposure, 24 h mortality	–	LC50	0.285 mg/m²
CC(=O)OCCn1c2ccc([N+](=O)[O-])cc2c(=O)n1Cc1ccccc1	Leishmania amazonensis	–	mouse peritoneal macrophages	intracellular amastigotes	baseline: CC50 macrophages over IC50 amastigotes	selectivity index	875
C/C=C/c1ccc(OC(C)=O)c(OC)c1	Artemia salina	toxicity	nauplii, artificial sea water	–	–	LC50	30.5 mM
